Measured values collected from several papers.
Numbered parts are unrelated; each lists some results of a single study.

Set 1
Target: RNA binding protein fox-1 homolog 2, RRM domain, GST-SBP tag (RBFOX2, Homo sapiens, UniProt O43251-10, residues 100-194)
Method: RNA Bind-n-Seq
Molecule type: RNA
Matrix: in vitro
Tested at: 365 nM
Setting: natural RNA segment, single round, ends assumed
Baseline: no-protein control
Direction: higher = stronger binding
Constant ends, left off below: GGGAGUUCUACAGUCCGACGAUC … UGGAAUUCUCGGGUGCCAA
Target sequence (chain): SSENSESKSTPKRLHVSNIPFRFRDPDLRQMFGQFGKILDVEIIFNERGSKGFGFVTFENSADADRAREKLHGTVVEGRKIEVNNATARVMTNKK
| Strand | RBNS enrichment (R) |
| --- | --- |
| CUUAACUUCAGCUGGUGCGAAACAUCUGACUGUUGUCAGACUCCAGCCAUCUGCUCCUGCAGCGUGCAGCUUUGGAUUGUUUGUGCAGAAAACAGCAAGCGAUGGCUGAU | 0.391 |
| UUCUUGUUGUCCCUCCCAUUAGCCAGGGCGGAGACUGUCUGAGCUGUGCAGGAGGAGGGUUGCUAGUAGGUUCUGCUUCUGCUUCUCUCUGCUCCACUGUCUGCAGCCCA | 0.461 |
| UGGACGUGUGGGCCACUUAAGCCCUCCCCACCCCCAUCCUAUUCCUGAAUAAAACCAGGAUAAUGGAGAGUUGUCUUUUCUGACAGUUUUAAUAAGCACUUCCCUAUCUG | 0.338 |
| CCACCCAAUAAGUAACUGUGAGAUGUACCGAAGGGAGUUCUUACCUGAAGAAGGGUGUGAAGGCUGAACAAUCAUGGAUUUUUCUGAUCAAUUGUGCUUUAGGAAAUUAU | 0.441 |
| UAAUACAAUCUACUGUACAGUUAGCAAGCGAAGUGUUAAAUGGAGAAGAUGCUUGUUUUUAUUAAACAUUUGGAGAUUUAGAUAAUUUACAUUUUAACUGAAUGUCUAAA | 1.34 |
| UGAAGAUUUCCUUCUGCAGUAUUUUCUUGAGAUAACAUAUUUGCUUUCCACCAUGUCCUGGGGGCCUGGUUAGUCCCUGGCCAUGGAGUGUGGUGGGAUGGCUGUCUUCU | 0.249 |
| GAGAGACUGUAUAUAUUUUUUCUAAAUACUUUGUGAAAUCAUUUUUGGUAGCAAUAUCUUUGAAUAUGAUGAAUAAAAGUGACUGUGAGUGCAAAUAGAAUUAGCAGUAA | 0.49 |
| GGUCUUAAUGUAGCUACUGUGCGGGUCACAGUUUCUCCCAAUGAUUAUGACUGGGACAUUCUUUGGUAGAUACCAUUUGCUACUAGUUUAUUUUGUGGCUAGAAAGUCAG | 1.17 |
| UUCUGGAAAGGUAGGUUUGCUGUGGAGGAAAUAAUGUACUAGAUCAUUGUCACAGAAAAACCAACUAUGAUUUAUGGUUGUGUUUUCAGAAUUCAACAUUAAAGAUUAAU | 0.617 |
| AGAGCCCCUGGCACAACUCUAGCAUAUCUGUGAGCAGCUGUUCCCUGUAGCCACUGCCCAGCACCUCCUCAGGCCAGCCUGGUGCCACAGUCACGUGGGGGAAGACCUCA | 0.347 |
| UCCCUGAGCCACAUGUUUCACACAAGUGUAGAAAAUGCCAGGGAUCCACCACAAGAUGGAGAUGGUCAGCACAAACCGAUUCUGUUCCUCUUUAAAGUGUAUAUUAGCCA | 0.362 |
| GUCUGGAAAUAGGGCUGUCUGCUUAUGGAAAUGCCAUCUGUAGACCUUGAGAGUCAACUGUACAGAUGUUUGCAGGUGACUCCUGCUUGCCACCCACCCAUCAUAUUUGA | 0.278 |

Set 2
Target: RING finger protein unkempt homolog, zinc fingers 1-6, GST-SBP tag (UNK, Homo sapiens, UniProt Q9C0B0, residues 30-357)
Method: RNA Bind-n-Seq
Molecule type: RNA
Matrix: in vitro
Tested at: not given
Setting: RNA with constant flanks, human and mouse sites, ends assumed
Baseline: input RNA pool
Direction: higher = stronger binding
Constant ends, left off below: GGGAGUUCUACAGUCCGACGAUC … CAACAGAGGAUUGAGCAUCA
Residues (chain): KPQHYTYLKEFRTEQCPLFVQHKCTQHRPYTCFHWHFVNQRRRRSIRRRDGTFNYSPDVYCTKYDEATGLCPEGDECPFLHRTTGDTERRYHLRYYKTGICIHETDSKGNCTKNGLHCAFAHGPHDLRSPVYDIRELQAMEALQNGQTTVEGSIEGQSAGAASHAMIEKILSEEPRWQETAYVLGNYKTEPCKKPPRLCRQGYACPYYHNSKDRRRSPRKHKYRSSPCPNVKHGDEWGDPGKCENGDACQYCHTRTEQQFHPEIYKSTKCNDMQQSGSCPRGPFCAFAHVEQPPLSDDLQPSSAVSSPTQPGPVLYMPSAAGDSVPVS
| Strand | bound/input enrichment [ratio] |
| --- | --- |
| GCUACAGGGCUCCUGGUGCUGAAGGACUUGGGCAUUCAGGUGGACCGCUACAUUGCCUCGGAGGUGUGUGAGGACUCCAUCACGGUGGGCAUGGUGCGGCACCAGGGGAAGAUCAUGUAC | 0.0871 |
| UCUGUUAAUCUCAAAGUGUGGCCAACUCCCAUUUACUUAGAGGCUGAUUAUCUAGUUUUGUAGUUCCUCAGGCCUCUAAUUUAUUUUUUGCUUUCUGCUUUAUUGAUCUUUUGCAUGUCC | 0.646 |
| UCUCCAGAGCAUAAAGAACUAUCUCAUUCUCCCCCAAGGGAGAAUAGCUUUGAGUCAUCUUUAGAGUUUAAAAACUCAGGCCCUGUUUCAGAAGUAAAUACUGGCUUUUCUCCUGAGGUU | 0.172 |
| GAUUUUGUGGACACCAGAUGUGUGCGGUGUUUUGUUUUCUUUCUUUCGUUUUAAUUUUUUUUUUUUUAAGACAACAACUAAAAAGAAAAAAAAAAUCCCAAGGAUUCUGUGCACUGGAAC | 0.222 |
| UUACAUUAAAAAUCAUUGUACUUGCACAACUUAAUUUAGAAAAAGAAUGUGUAUUUCUUCAAUAGCCGAGCAUAAGGAUUGCACCCUGUAUCUGAAUGUGGCUCUUUGGAUGGAAGUGCA | 0.902 |
| GUCCCGGACCGCAGUGUUAAAAAGACCUGAACACAUUUGCUGAAACCUCUUGCUGUGAGAUAGCAGAACUUUUGAGCAGGUUUCUCUACACAUAAAAAUCUUUUCAAAAAUACGGAGAAG | 0.343 |
| CUCAUGGCUGCAGAAACAGGAAGUGGAAAAACUGGUGCAUUUAGUAUUCCCGUUAUCCAGAUAGUGUAUGAAACUCUGAAAGACCAACAGGAAGGAAAGAAAGGGAAAACAACUAUUAAA | 0.676 |
| AAUGAGAAGAAACUUCAAGAGGUUGAUAGUUUGUGGAAAGAAUUUGAAACUCCAGAGAAAGCAAAUAAAAUAGUAAAGCUAAAACAUUUUGAGAAAUUUCAGGAUACAGCAGAAGCAUUA | 0.526 |
| CACAUCAAAUAUGCUGUCACCACUGGGGACCAUGGGAUUAUCCGAACUCUGGAUUUACCCAUCUAUGUCACCAGAGUGAAGGGCAAUAAUGUAUACUGCCUAGACAGAGAGUGUCGUCCU | 0.088 |
| CUACAAGAUGUUCUGCAGUUGUUCAAGUUCUUUUGUGUUUUGUGGACCUAUGGUUCUAGCCUUUCAAAUCCACUUAACUGCACUGUGAAGUCAGAGCUGCAGACUCAAGCUCUUUACAUA | 0.143 |
| ACUGCGGCUUUUGGAACAGAAAGUUGAGCUUGCGCAGCUGCAAGAAGAAUGGAAUGAACAUAAUGCCAAAAUAAUUAAAUAUAUAAGAACUAAGACAAAGCCCCAUUUGUUUUAUAUUCC | 0.695 |

Set 3
Target: Interferon regulatory factor 7, full length, phosphomimetic (IRF7, Homo sapiens, UniProt Q92985, residues 1-503, S101K/S471D/S472D/S475D/S476D/S477D/S483D/S484D/S487D)
Method: protein-binding microarray
Molecule type: double-stranded DNA, one strand shown
Matrix: in vitro
Tested at: 250 nM
Setting: 60-bp whole probe
With: salmon DNA 0.4 mg/ml
Baseline: random background probes
Direction: higher = stronger binding
Constant ends, left off below: GCCTAGCAC … GTCTTGATTCGCTTGACGCTGCTG
Construct (chain): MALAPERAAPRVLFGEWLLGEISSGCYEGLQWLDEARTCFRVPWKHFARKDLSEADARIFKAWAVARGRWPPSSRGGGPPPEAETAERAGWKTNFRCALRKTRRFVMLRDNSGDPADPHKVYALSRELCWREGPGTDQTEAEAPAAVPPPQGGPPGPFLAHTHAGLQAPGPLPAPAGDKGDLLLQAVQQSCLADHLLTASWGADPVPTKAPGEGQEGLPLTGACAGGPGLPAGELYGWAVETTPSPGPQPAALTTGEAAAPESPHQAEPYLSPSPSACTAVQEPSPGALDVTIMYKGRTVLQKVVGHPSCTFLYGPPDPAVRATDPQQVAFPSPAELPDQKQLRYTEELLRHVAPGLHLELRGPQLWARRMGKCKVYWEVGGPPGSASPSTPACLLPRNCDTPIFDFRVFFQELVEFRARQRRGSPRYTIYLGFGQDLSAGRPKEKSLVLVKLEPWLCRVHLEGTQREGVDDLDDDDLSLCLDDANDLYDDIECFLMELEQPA
| Strand | log fluorescence |
| --- | --- |
| TCACCTCTGGGCTGTTTGACTGTGCTA | -0.542 z-score |
| CTCCCTTTCAGTTTTCCTATGTGCTAG | 1.18 z-score |
| TTAGGACTGGACTGTCGGTTAGTGCTA | -0.301 z-score |
| GACGGGATCGACTTTCGGGACGTGCTA | 0.555 z-score |
| TTAGGACTGGTGTTTCGGTTAGTGCTA | 3.77 z-score |
| GACGATCTCAGTAACGAGACGTGCTAG | -0.019 z-score |
| TTAGATATCGGGACTGAATTAGTGCTA | 0.112 z-score |
| TTAGGTATCGACTATTGGTTAGTGCTA | 0.216 z-score |
| TGAGGACTGGGACTGGGTTAGTGCTAG | -0.489 z-score |
| GGACCGCGACCTGCCAAGTCGTGCTAG | -0.122 z-score |
| TTCGATATCAGTCTCGATTAGTGCTAG | 1.53 z-score |
| TTAGATTCCAGTTTCGAATAGTGCTAG | 6.65 z-score |
| CTATATTTGCTTCAGGTTTAGTGCTAG | 1.1 z-score |
| GAGGGTATCGGTATCGGGACGTGCTAG | 0.558 z-score |
| GACGGTCTCGGTCTCGGGCCGTGCTAG | 0.346 z-score |
| TCAACTTTGGCATGTCTTACTGTGCTA | -0.355 z-score |
| TTTGCTTTCATTTATTTACTGTGCTAG | 0.734 z-score |
| TGAGTGAAAGGCCCATACATGTGCTAG | -0.435 z-score |
| TCAAGAATGGGGTTTGCAACTGTGCTA | -0.719 z-score |
| GACGATTTCGGGTTCCGAGACGTGCTA | 1.87 z-score |
| GACGGTATCCTTATCCTCACGTGCTAG | 0.347 z-score |
| GCACTCTTCTTTTTTTTCTTGTGCTAG | 0.965 z-score |
| TCACCTTACTTTATGTAACTGTGCTAG | 0.177 z-score |
| TAGTTTTCAATTTTTGCATCGTGCTAG | 1.56 z-score |
| TCAGTCATCTATAATGGAACTGTGCTA | 0.0457 z-score |

Set 4
Target: Histone acetyltransferase KAT6A, winged helix 1, GST fusion (KAT6A, Homo sapiens, UniProt Q92794, residues 1-85)
Method: protein binding microarray
Molecule type: double-stranded DNA, one strand shown
Matrix: in vitro
Tested at: not given
Setting: 8-mer, flanks averaged, mean of 2 arrays, mostly near background
Baseline: not given
Direction: higher = stronger binding
Construct (chain): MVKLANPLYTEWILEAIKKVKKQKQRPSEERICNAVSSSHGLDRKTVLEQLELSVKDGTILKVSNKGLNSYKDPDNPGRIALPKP
| Strand | E-score |
| --- | --- |
| AGTGCTGA | -0.122 |
| GATAAGCC | -0.0427 |
| ATCCAACA | -0.165 |
| CACCTAGA | -0.23 |
| CTTCGAAC | 0.00661 |
| CAAGCGGA | 0.136 |
| ATGGTATG | -0.0423 |
| ATGGTATC | -0.08 |
| ACTGATCG | -0.0758 |
| CATGGGCA | -0.107 |
| ACAACAAT | -0.242 |
| AGGGTTAA | -0.162 |
| AACACCGG | 0.197 |
| CAACCTAA | -0.158 |
| GGCCACGA | -0.102 |
| AGTGTCTC | -0.233 |
| CAGTCAGC | 0.0576 |
| AAATCCGA | 0.0778 |
| ATTTAGAC | -0.21 |
| AGGCGTGC | 0.252 |
| ACCACCGC | 0.203 |
| GAGAAAAA | -0.089 |
| GCCCGGAC | 0.233 |
| ATGGTGTG | -0.331 |
| AGACGAGA | -0.102 |

Repeated from above (set 4):
| Strand | E-score |
| --- | --- |
| ACCACCGC | 0.203 |
| AACACCGG | 0.197 |
| CACCTAGA | -0.23 |
| AGTGTCTC | -0.233 |
| ATGGTGTG | -0.331 |
